Assay results pooled from the literature.
Parts stem from different laboratories: compare values within a part only. Substitutions count along the parent as printed.
Sequence of UniProt O00762 (whole entry, looked up): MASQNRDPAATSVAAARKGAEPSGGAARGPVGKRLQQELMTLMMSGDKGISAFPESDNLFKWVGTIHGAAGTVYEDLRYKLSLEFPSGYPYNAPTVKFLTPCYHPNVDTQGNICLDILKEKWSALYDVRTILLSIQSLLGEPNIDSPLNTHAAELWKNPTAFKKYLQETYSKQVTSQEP
Sequence of UniProt Q9H832 (whole entry, looked up): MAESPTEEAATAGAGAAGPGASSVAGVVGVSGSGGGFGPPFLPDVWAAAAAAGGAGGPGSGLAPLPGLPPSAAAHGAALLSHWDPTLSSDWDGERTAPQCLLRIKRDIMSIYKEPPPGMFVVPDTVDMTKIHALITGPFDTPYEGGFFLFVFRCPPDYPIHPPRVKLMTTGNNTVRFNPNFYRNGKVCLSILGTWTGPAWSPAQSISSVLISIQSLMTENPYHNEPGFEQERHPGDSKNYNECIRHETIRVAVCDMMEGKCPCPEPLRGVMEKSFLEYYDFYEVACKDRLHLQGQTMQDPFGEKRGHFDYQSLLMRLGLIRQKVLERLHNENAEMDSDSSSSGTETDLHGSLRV
Sequence of UniProt Q9C0C9 (whole entry, looked up): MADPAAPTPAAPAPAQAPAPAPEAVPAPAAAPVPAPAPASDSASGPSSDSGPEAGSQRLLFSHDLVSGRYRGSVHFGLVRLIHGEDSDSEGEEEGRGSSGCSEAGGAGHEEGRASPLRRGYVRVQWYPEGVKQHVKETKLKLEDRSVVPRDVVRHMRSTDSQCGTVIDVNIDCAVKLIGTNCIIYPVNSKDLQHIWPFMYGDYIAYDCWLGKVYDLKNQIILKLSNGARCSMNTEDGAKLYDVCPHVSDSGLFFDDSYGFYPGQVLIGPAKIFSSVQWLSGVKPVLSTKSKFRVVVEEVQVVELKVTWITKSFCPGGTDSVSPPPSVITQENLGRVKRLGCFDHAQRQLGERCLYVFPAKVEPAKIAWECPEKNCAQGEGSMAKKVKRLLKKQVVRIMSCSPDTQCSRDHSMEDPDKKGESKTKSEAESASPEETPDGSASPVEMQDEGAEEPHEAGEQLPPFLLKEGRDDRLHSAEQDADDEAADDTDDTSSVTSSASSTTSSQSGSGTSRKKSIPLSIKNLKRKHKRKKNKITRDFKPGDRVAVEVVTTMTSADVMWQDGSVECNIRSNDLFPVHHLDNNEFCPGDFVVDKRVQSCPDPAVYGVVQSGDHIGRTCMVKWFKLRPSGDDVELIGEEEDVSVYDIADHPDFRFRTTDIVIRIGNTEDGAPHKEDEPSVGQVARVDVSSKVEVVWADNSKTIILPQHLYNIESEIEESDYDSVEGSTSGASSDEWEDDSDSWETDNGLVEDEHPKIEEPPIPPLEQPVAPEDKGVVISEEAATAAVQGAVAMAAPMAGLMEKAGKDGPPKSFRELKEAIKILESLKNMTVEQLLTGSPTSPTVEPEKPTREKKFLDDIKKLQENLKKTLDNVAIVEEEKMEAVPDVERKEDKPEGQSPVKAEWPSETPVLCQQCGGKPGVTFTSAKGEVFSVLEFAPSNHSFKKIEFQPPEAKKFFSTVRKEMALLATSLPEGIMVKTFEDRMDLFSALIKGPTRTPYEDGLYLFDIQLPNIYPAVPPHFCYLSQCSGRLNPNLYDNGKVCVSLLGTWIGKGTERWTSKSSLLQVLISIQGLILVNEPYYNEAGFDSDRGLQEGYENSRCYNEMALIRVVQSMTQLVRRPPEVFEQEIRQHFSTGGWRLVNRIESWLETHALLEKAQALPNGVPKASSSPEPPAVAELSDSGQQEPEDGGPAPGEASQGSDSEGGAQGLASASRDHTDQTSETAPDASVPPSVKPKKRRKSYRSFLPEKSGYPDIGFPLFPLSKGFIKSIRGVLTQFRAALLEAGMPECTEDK
Sequence of UniProt P51668 (whole entry, looked up): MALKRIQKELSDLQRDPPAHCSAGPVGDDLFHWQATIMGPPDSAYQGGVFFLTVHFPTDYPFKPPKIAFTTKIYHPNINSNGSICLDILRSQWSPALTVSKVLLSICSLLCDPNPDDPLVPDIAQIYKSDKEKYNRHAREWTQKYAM
Sequence of UniProt Q7Z7E8 (whole entry, looked up): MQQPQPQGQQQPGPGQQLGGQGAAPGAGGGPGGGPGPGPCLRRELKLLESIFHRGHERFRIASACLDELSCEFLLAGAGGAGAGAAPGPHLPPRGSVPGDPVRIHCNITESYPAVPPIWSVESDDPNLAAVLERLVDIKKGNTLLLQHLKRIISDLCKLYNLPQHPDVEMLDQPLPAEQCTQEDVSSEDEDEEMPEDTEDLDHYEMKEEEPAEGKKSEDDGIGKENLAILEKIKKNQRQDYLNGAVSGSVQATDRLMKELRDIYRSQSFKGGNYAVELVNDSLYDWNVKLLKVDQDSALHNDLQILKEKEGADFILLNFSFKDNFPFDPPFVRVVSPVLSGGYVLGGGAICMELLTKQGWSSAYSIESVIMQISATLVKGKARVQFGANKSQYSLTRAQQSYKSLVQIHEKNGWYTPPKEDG
Sequence of UniProt P68036 (whole entry, looked up): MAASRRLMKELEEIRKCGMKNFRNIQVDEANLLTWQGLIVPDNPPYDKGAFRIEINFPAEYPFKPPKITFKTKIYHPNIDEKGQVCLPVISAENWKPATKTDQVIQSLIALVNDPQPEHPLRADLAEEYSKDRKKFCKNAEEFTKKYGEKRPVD
Sequence of UniProt Q969T4 (whole entry, looked up): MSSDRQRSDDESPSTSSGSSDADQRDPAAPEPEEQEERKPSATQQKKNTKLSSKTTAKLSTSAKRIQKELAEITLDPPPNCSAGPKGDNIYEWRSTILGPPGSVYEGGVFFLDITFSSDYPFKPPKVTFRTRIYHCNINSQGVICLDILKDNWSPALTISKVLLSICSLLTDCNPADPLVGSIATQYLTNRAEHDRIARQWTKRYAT
Sequence of UniProt Q712K3 (whole entry, looked up): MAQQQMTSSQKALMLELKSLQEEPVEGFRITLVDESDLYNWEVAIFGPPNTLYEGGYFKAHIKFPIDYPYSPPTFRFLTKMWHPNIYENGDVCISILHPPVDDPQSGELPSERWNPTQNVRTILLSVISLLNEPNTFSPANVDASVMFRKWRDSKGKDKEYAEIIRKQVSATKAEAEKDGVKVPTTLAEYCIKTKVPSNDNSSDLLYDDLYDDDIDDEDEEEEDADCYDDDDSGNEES
Sequence of UniProt Q8N2K1 (whole entry, looked up): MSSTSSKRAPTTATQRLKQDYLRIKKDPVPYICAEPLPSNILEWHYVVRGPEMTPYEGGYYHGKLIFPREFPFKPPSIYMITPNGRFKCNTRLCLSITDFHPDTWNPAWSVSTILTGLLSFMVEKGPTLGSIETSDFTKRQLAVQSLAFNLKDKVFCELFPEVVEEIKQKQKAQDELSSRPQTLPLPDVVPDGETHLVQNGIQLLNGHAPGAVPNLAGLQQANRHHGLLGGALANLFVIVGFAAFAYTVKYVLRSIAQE

Sample 1
Sequence: B1 (DTX4 RING domain)
Method: yeast two-hybrid
Sample: yeast
Setting: mostly zero background
Reference: not given
Reading: higher = stronger interaction
B1: DTX4 RING domain (UniProt Q9Y2E6); chain QKVRHPPDEDCTICMERLTAPSGYKGPQPTVKPDLVGKLSRCGHVYHIYCLVAMYNNGNKDGSLQCPTCKTIYGVKTGTQ
The “lacZ reporter activity” was 0 (UBE2I UBC core domain (UniProt P63279)).
It gave 0 for “lacZ reporter activity” (UBE2Q1 UBC core domain (UniProt Q7Z7E8)).
It gave 0 for “lacZ reporter activity” (UBE2D1 UBC core domain (UniProt P51668)).
UBE2O UBC core domain (UniProt Q9C0C9) — “lacZ reporter activity”: 0.
The “lacZ reporter activity” was 0 (UBE2J2 UBC core domain (UniProt Q8N2K1)).
UBE2E3 UBC core domain (UniProt Q969T4) — “lacZ reporter activity”: 0.
The “lacZ reporter activity” was 0 (UBE2Z UBC core domain (UniProt Q9H832)).
It gave 0 for “lacZ reporter activity” (BIRC6 UBC core domain (UniProt Q9NR09)).
It gave 0 for “lacZ reporter activity” (UBE2R2 UBC core domain (UniProt Q712K3)).
For UBE2C UBC core domain (UniProt O00762): “lacZ reporter activity” read 0.
It gave 0 for “lacZ reporter activity” (UBE2L3 UBC core domain (UniProt P68036)).

Sample 2
Target: CCNB2, cyclin fold, Cln2 fusion (human)
Method: yeast growth competition, sequencing
Sample: yeast
Setting: weak parent motif
Reference: not given
Reading: higher = stronger binding
Starting sequence: FOXM1 docking peptide (human); PHLARPIKVESPP; partner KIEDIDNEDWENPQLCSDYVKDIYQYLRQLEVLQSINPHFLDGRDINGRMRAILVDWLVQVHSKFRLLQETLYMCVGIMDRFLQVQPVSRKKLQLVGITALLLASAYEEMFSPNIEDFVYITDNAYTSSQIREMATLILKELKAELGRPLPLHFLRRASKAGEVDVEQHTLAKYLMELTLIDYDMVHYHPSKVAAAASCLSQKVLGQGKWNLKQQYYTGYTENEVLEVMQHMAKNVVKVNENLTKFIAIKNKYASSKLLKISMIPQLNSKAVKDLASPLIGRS
`P13A`: “normalised enrichment score” -0.705.
`R5A` — result for “normalised enrichment score”: -1.03.
`I7A`: “normalised enrichment score” -0.736.
Under “normalised enrichment score”, `P12A` is recorded as -1.83.
`E10A`: “normalised enrichment score” -0.778.
Under “normalised enrichment score”, `V9A` is recorded as 0.000659.

Sample 3
Target: RNA binding protein fox-1 homolog 2, RRM domain, GST-SBP tag (RBFOX2, Homo sapiens, UniProt O43251-10, residues 100-194)
Method: RNA Bind-n-Seq
Molecule type: RNA
Sample: in vitro
Concentration: 365 nM
Setting: natural RNA segment, single round, ends assumed
Reference: no-protein control
Reading: higher = stronger binding
All sequences stand within: GGGAGUUCUACAGUCCGACGAUC … UGGAAUUCUCGGGUGCCAA
Construct (chain): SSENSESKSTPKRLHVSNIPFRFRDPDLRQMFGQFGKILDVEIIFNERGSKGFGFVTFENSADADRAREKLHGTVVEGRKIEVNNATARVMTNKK
`AAACUUAAAGUCUAUUCUACUUUGCAAGAGGAGAAAUGUGUUUUAUGAACGAUAGAUCACAUCAGAACUCCUGUGGGGAGGAAACCUUAUAAAUUAAACACAUGGCCCCC`: “RBNS enrichment (R)” 0.286.
For `GCGUCUCCCACCUUUGGUACCAUCUCUAGUCAUCCUUCCUCCCGGAAGUUGACAAGACACAUCUUGAGUAUGGCUGGCACUGGUUCCUCCAUCAAGAACCAAGUUCACCU`, “RBNS enrichment (R)” read 0.203.
For `UGCUUAGUGCCAUAGGUAGACUGAGUCUUCUGUAAGUCAUCAUUACAUAGUAAUUUUGGUUCUGAAUUUUACAUUAAAUUAUUUGAAUAUAUACAGACCUAAAUUUUAAA`, “RBNS enrichment (R)” read 0.492.
`CAGCAGGGCUGAGGGGCCUAGGGCUGCCUGCUCUCCAAAGCAGAUGACCCAUGUGCGGCAGGGACUCGGCAAAGCUGUGAGGAGCUGAGCUCCGGAGACAGGCACAGCUC`: “RBNS enrichment (R)” 0.534.
`CCGUGGACUCUCCCUGGUCCACCACCAUGUUGAAGCCCUUGGCAGCCUGAGAGCUCCAAGGAACAAGCUGUGACAACCAGGAGCCCUGUCUGUGGGUUCGUCUGCCCAGG`: “RBNS enrichment (R)” 0.246.
`UAGGAACAAUGCAUUCUAAUGGUACAACUGCCAAAACCCACCCUUGGUUUCUGAUGAUUUAUAAGUAACUACAAAAGAAAGAGACCUGUUCUUGAACAGAUACUAUGUCU`: “RBNS enrichment (R)” 0.442.
`UUCUUUCCUGCUAUGCUGUGAGCUACUGAGCUUUACAGCCAUGAAAACUAUUGUAGGCUCCCUCGCCAAACCAUGGCUUUCCCUCAGCAUCAAGACCUGUGCCAAGGAGA` — result for “RBNS enrichment (R)”: 1.76.
For `UGACUUGGACCCACCAAGGCUUCUGAGCACACACAUCCAUGUGGCCGAGGUUUCUAGUGCUUCAUAGUGGCUCUUGUUCUGAGUUCUGUCCUGAGCCUCUUGUUACCUUG`, “RBNS enrichment (R)” read 0.279.
For `UACAAGACUUCAUAAUGGUUUUGUGUGCUCUCGAGAGAGUACCUGCAGACUAGUUUUGGAUACAUUCACAUUUUGUACGUUUUCAUAUAAGCUGACAUAGUGUGAUUUGC`, “RBNS enrichment (R)” read 0.249.
Under “RBNS enrichment (R)”, `UGUCUUGAAGUCAAUGCAUGCUCGUGCUGUUCGACAGUAACCUACUCUGCCUUCUCCACCUCCGAGGCUGUGCAUUCAUCCAAUUAGUGUCAUGAAUGUUUCCCCUUUAU` is recorded as 5.71.
`AUUACAAGCAUGAGCCACCGCACCCGGCCUCACAGUGACAGAUUCUGAGAAACAGCAUGCAAAACAUUUGAACCAUUUUCUACAUCUCCCAUUGUUGCAUAGAGAGUGUG` — result for “RBNS enrichment (R)”: 22.5.
Under “RBNS enrichment (R)”, `UCCUGCCGUCCUCCCACUGGCAUCCUGGCAAGGGGGCGUUGCUUUUCCUGGGCGGCCUUUUAUGUCUUGGAGACACCUGAUGUAAAGUUUCUGUAAAUCUAUUUCAUAUC` is recorded as 0.533.

Sample 4
Target: RING finger protein unkempt homolog, zinc fingers 1-6, GST-SBP tag (UNK, Homo sapiens, UniProt Q9C0B0, residues 30-357)
Sequence of UniProt Q9C0B0 (30-357, looked up): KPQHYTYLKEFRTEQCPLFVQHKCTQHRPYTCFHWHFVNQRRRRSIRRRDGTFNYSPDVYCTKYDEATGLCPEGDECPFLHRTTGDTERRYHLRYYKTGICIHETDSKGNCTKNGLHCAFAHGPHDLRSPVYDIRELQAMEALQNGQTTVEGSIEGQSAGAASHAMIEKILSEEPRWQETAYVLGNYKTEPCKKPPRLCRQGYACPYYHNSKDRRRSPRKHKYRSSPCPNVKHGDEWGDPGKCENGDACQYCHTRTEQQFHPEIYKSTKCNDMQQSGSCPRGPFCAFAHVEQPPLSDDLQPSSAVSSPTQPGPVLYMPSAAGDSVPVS
Method: RNA Bind-n-Seq
Molecule type: RNA
Sample: in vitro
Concentration: not given
Setting: RNA with constant flanks, human and mouse sites, ends assumed
Reference: input RNA pool
Reading: higher = stronger binding
All sequences stand within: GGGAGUUCUACAGUCCGACGAUC … CAACAGAGGAUUGAGCAUCA
With `UCUGCUAAAGCAGCUAUCGACUGGUUUGAUGGUAAAGAAUUCUCUGGGAAUCCUAUUAAAGUUUCAUUUGCUACCCGCCGAGCUGACUUCAAUCGGGGUGGUGGAAAUGGUCGCGGAGGC` the bound/input enrichment was 0.163 ratio.
`ACCCUGGAAGAGGAGACCGUGAUGCUUGCAAUGACUCCAGAUGAUUUGCAGGAGAAGGAAGUAGCUUAUUGUUCUACCUACACCCACUGUGAGAUUCACCCAUCAAUGAUUCUUGGAGUC` gave a bound/input enrichment of 0.146 ratio.
With `CAGCUCCAGUCUAAUACCUAUGACCUCCAAGAGAGCAACGUGAGGCUAAAGCUCACGAUCGUUAGCACAGUUGGCUUUGGGGACCAGAUCAACAAAGAGGACAGCUACAAGCCUAUCGUG` the bound/input enrichment was 0.116 ratio.
`UUUGUAUUUAUGCUAAGCACACGUGCUGGUGGUCUGGGCAUCAAUCUUGCAACUGCUGAUGUAGUCAUUUUAUAUGACUCAGAUUGGAAUCCGCAAGUUGAUCUUCAGGCUAUGGACCGU` gave a bound/input enrichment of 0.106 ratio.
The bound/input enrichment of `CAGGCCACAGAAAGCGAGGCUGGUGAUAUGGACCUGAGUGGGUUGCCAGAAACAGCAGUGGAUUCCGAAGACGACGACGAUGAAGAAGACAUUGAGAGAGCAUCAGAUCCUCUGAUGAGC` is reported as 0.115 ratio.
With `GGCCCCGGAACCCGAGCUGGAGCUGAAGCGCAGGCUGCGGGGCGCGGAGUCGGGAGGCCUGAGUGUUCCUUCCAGCAUGUCGGAGGGGGAGUCCCAGACAGUACUUAGCAGUGGCUCAGA` the bound/input enrichment was 0.301 ratio.
`UUGUAAGUGCACGCACGCCAGUGGUCUGUUCCCGCGGCCGGGUUUGAUGGCACAGCUAUUUUCUUCCCAAACUGUUCAAAAUGAUGAACGAAGAUGCAGCUCAGAAAAGCGACAGUGGAG` has a bound/input enrichment of 0.24 ratio.
For `UAGGACAUCUAUUUCACUGUGUCGUUUCCUUCCCUCUUUUGAAAUGAAGACACAGGCUCCACACAUUCGUCCUUUCCAUAGAGCAGGUAUAGGACCAGGUGCAAUAAAAAAAAAUGGCCU`, the bound/input enrichment was 0.361 ratio.
The bound/input enrichment of `UGGACUACCAAGCAUGUGGCUGUGUGGCUGAAGGACGAAGGUUUCUUUGAGUAUGUGGACAUUUUAUGCAACAAGCACCGCCUUGAUGGAAUCACAUUGCUCACGCUGACUGAAUAUGAU` is reported as 0.186 ratio.
`GCGUAUGUUUCGCACUGCUCUUUUACUCUGAGGGUUUAAACAAUAUUUCUCCAGGGGUUUCCUCACUGAGAACCCAUGCAGUCUACUUAAUGCUGUGAAUCACAUUUUCCAAAUGUUUAA` has a bound/input enrichment of 0.162 ratio.
`AGGAAGAAUCUUUUUGAAAGGCCUUUAUUCAAUACCCAUUUACAGAAGUCCUUUGUAAGUAGCAACUGGGCUGAAACACCAAGACUAGGAAAAAAAAAUGAAAGCUCUUAUUUCCCAGGA` has a bound/input enrichment of 4.57 ratio.

Sample 5
Target: ABI1, truncated, D143A, DHFR fusion (Arabidopsis thaliana)
Method: DHFR PCA, deep sequencing
Sample: yeast
Setting: methotrexate growth selection, single substitutions
Together with: (+)-ABA 0 µM
Reference: wild-type fitted maximum
Reading: higher = stronger binding
Starting sequence: PYL1, truncated, DHFR fusion (Arabidopsis thaliana); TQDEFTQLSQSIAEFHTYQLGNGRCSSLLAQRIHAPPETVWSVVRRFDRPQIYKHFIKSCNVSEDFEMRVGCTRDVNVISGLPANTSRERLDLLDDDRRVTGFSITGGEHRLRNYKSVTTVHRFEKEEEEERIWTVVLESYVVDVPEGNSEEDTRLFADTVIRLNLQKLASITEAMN; partner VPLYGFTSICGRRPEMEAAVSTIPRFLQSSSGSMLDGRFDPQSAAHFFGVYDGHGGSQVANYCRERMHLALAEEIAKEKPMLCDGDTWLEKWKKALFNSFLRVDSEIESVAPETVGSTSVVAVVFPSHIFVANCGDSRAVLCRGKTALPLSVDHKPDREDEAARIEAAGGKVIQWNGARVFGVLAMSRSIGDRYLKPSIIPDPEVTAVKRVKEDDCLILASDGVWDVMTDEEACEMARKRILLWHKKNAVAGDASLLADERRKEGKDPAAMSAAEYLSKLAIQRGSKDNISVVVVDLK
Under “relative binding score”, `S87N` is recorded as -0.539%.
Under “relative binding score”, `T1V` is recorded as 32.6%.
Under “relative binding score”, `S104C` is recorded as -0.644%.
Under “relative binding score”, `Q2A` is recorded as 43.1%.
`V145F` — result for “relative binding score”: -21.4%.
Under “relative binding score”, `A170W` is recorded as -8.3%.
`L29K`: “relative binding score” 4.24%.
For `G107Q`, “relative binding score” read 14.1%.
`Y18G`: “relative binding score” 1.04%.
`Y115N` — result for “relative binding score”: 1.31%.
`E139L`: “relative binding score” 2.04%.
`R155N` — result for “relative binding score”: -5.65%.
For `T135P`, “relative binding score” read -6.44%.
Under “relative binding score”, `R99H` is recorded as 26.7%.
`A35N` — result for “relative binding score”: -0.814%.

A few entries again (sample 5):
Under “relative binding score”, `A170W` is recorded as -8.3%.
`L29K`: “relative binding score” 4.24%.
For `G107Q`, “relative binding score” read 14.1%.
